Assay results of several laboratories.
Numbered parts are unrelated; each lists some results of a single study. Changes are numbered by the printed parent chain.

Block 1
Target: CREB3L1, bZIP domain (human)
Technique: DHFR protein complementation
Sample: yeast
Notes: single substitutions, most at no-binding floor
Reference: wild-type JUN-FOS pair
Direction: higher = stronger binding
Quantity: binding fitness
Starting sequence: JUN, bZIP domain (human); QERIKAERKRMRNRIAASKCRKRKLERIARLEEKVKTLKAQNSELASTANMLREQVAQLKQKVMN; partner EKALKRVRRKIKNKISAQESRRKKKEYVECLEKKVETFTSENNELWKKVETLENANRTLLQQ
V35W: -1.44 natural log
T48F: -1.51 natural log
E54A: -1.37 natural log
R30V: -1.25 natural log
E54H: -1.36 natural log
S47M: -1.18 natural log
N42T: -1.46 natural log
M51I: -1.49 natural log
K36A: -1.21 natural log
A29F: -1.47 natural log
A46P: -1.55 natural log
E54V: -1.37 natural log
S47R: -1.29 natural log
K39N: -1.48 natural log
E33R: -1.38 natural log
A57S: -1.52 natural log
K36C: -1.47 natural log
A40K: -1.54 natural log
T48N: -1.4 natural log
E44S: -1.51 natural log
A49S: -1.46 natural log
R53M: -1.44 natural log

Block 2
Target: CCNA1, cyclin fold, Cln2 fusion (human)
Technique: yeast growth competition, sequencing
Sample: yeast
Notes: weak parent motif
Reference: not given
Direction: higher = stronger binding
Quantity: normalised enrichment score
Starting sequence: PKMYT1 docking peptide (human); SFEPRNLLSLFED; partner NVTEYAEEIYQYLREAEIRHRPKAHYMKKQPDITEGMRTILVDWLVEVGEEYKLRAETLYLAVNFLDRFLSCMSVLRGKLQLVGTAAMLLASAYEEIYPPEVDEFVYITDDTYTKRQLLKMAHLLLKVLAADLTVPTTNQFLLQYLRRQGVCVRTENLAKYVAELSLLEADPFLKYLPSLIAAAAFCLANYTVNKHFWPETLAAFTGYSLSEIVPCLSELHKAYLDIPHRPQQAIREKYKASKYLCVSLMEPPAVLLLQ
SFELRNLLSLFED [P4L]: 0.00531
SFEPMNLLSLFED [R5M]: 0.182
SFEPRNLLSMFED [L10M]: 0.138
SFEPRNLLSLKED [F11K]: 0.163
SFEPRNLASLFED [L8A]: 0.501
TFEPRNLLSLFED [S1T]: 0.0632
SFEPRFLLSLFED [N6F]: 0.491
SFEPRNWLSLFED [L7W]: 0.137
SYEPRNLLSLFED [F2Y]: 0.0947
SQEPRNLLSLFED [F2Q]: 0.167
QFEPRNLLSLFED [S1Q]: 0.164
SFEPRNLLSLFRD [E12R]: -0.0735
SFEQRNLLSLFED [P4Q]: 0.297
SFEPSNLLSLFED [R5S]: 0.127
SFEPRNLLSLFSD [E12S]: -0.267
SFRPRNLLSLFED [E3R]: 0.112
SFEPRNLYSLFED [L8Y]: 0.445
SFEPRNLLSTFED [L10T]: 0.348
SFEPENLLSLFED [R5E]: 0.621
SNEPRNLLSLFED [F2N]: 0.0811
SFEPRNLLSLFND [E12N]: -0.0194
SFEPRNLLFLFED [S9F]: 0.0814
SFEPTNLLSLFED [R5T]: 0.0439
SFEPRNLLVLFED [S9V]: 0.401

Block 3
Target: CRIPT, C-terminal peptide
Technique: DHFR complementation, deep sequencing
Sample: yeast
Notes: single substitutions, model-inferred values
Reference: wild type
Direction: higher = weaker binding
Quantity: binding free energy change
Starting sequence: ERBIN, PDZ domain 1 (human); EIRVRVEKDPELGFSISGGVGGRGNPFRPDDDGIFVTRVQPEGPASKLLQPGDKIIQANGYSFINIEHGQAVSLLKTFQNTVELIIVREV; partner TKNYKQTSV
P51V: 0.26 kcal/mol
G60E: 0.0605 kcal/mol
A71P: 0.887 kcal/mol
A45N: 0.323 kcal/mol
S62K: 0.0762 kcal/mol
L48R: 0.104 kcal/mol
Y61C: -0.00404 kcal/mol
V36L: 0.21 kcal/mol
S73H: 0.0113 kcal/mol
L12W: 1.21 kcal/mol
K47S: 0.053 kcal/mol
G33A: 0.449 kcal/mol
I64S: -0.0277 kcal/mol
L74I: 0.0466 kcal/mol
P44H: 0.514 kcal/mol
V82W: 0.832 kcal/mol
I55T: 0.692 kcal/mol
R28L: 0.1 kcal/mol
E67L: 0.328 kcal/mol
R28K: -0.0359 kcal/mol
E42M: 0.145 kcal/mol
T81S: 0.0297 kcal/mol
E7M: -0.139 kcal/mol
G19F: 1.23 kcal/mol
V87Q: -0.0738 kcal/mol

Other studies, line by line
PhoQ, residues 284 288 289 292 302 303 QWQEDG  fold induction (PhoP, residues 12 14 15 18 19 SQCLL (Escherichia coli, UniProt P23836); Sort-seq, measured: YFP reporter; E. coli; PhoQ-PhoP variant library, added: 10 µM Mg2+; reference: high Mg2+ state, higher = stronger signaling): 15.2
